Assay results collected from several papers.
Each line is one published result; not all experiments were run side by side. Several values in a cell are separate wells, animals, samples, runs or records. ± marks the error that the study gave.

Structure (SMILES)	organism	test	test system	setting	EC50
Fc1cccc(COc2ccc(Nc3ncnc4ccc(-c5cccc(N6CCCCC6)c5)cc34)cc2Cl)c1	Leishmania major	parasite growth, resazurin		promastigote	> 15000 nM
CCCCCC(=O)N[C@H](C(=O)N[C@@H](CCCC)C(=O)N[C@@H](CC(C)C)C(=O)[C@@]1(C)CO1)C(C)C	Trypanosoma brucei	parasite growth, SYBR Green		72 h	> 4000 nM
COc1cccc(/C=N/Nc2nc(Nc3ccccc3)nc(-n3nc(C)cc3C)n2)c1O	Mus musculus	gene silencing, high-content imaging	LDR reporter GFP cells	confirmation, mean of two runs	3550 nM
CCCCCC(=O)NC(CC(=O)N(CC)CC)C(=O)NC(Cc1ccc(F)cc1)C(=O)NC(Cc1ccc(F)cc1F)C(=O)C1(C)CO1 (stereo not shown)	Trypanosoma brucei	parasite growth, SYBR Green			157 nM
[2H]C([2H])(N)C([2H])([2H])NC(=O)c1cc(C2CC2)nc2c1cnn2C(C)C	Enterovirus D68	cytopathic effect	RD, US/MO/14-18947		160 nM
Cc1ccc2c(c1)nc(NC(=O)c1cccc(C(F)(F)F)c1)n2[C@H]1CC[C@H](N)CC1	Trypanosoma brucei brucei	growth inhibition, CellTiter-Glo	Lister 427 bloodstream form	48 h	293 nM and 260 nM
COc1cccc(COc2ccc(Nc3ncnc4ccc(-c5ccc(S(=O)(=O)N6CCOCC6)cc5)cc34)cc2Cl)c1	Leishmania major	parasite growth, resazurin		promastigote	> 15000 nM
Cc1ccc(C(C)C)c(OCc2ccc(C(=O)N/N=C/c3cccc(O)c3O)cc2)c1	Mus musculus	gene silencing, high-content imaging	LDR reporter GFP cells	retest, mean of two runs	1580 nM
O=S(=O)(c1cccc(-c2ccc3ncnc(Nc4ccc(OCc5cccc(F)c5)c(Cl)c4)c3c2)c1)N1CCCCC1	Leishmania major	parasite growth, resazurin		promastigote	> 15000 nM
Oc1c(/N=N/c2ccccn2)ccc2ccccc12	Mus musculus	gene silencing, high-content imaging	LDR reporter GFP cells	retest, mean of two runs	10000 nM
Cc1ccc(N(C)C(=O)[C@H](Cc2ccccc2)NC(=O)Cc2c[nH]c3ccc(O)cc23)cc1	HIV-2	viral replication			350 ± 90 nM
O=C(c1ccc(-c2ccc3ncnc(Nc4ccc(OCc5cccc(F)c5)c(Cl)c4)c3c2)cc1)N1CCCCC1	Leishmania major	parasite growth, resazurin		promastigote	1000 nM
CC1=C/C(=N\N=C(/S)Nc2cccnc2)CC(C)(C)C1	Mus musculus	gene silencing, high-content imaging	LDR reporter GFP cells	retest, mean of two runs	7940 nM

Excerpt of the above:
Structure (SMILES)	organism	test	test system	setting	EC50
Fc1cccc(COc2ccc(Nc3ncnc4ccc(-c5cccc(N6CCCCC6)c5)cc34)cc2Cl)c1	Leishmania major	parasite growth, resazurin		promastigote	> 15000 nM
